Results pooled from the literature.
A part holds a random share of what one study measured. Changes are numbered by the printed parent chain.

Block 1
Target: PABPC1L2, full length, GST fusion (mouse, UniProt A0ABA7IW68)
Method: RNAcompete
Form: RNA
Sample: in vitro
Concentration: 20 nM
Setting: 7-mer, probes averaged, single round
Baseline: mean of 7-mers
Direction: higher = stronger binding
Endpoint: 7-mer Z-score
Target sequence (chain): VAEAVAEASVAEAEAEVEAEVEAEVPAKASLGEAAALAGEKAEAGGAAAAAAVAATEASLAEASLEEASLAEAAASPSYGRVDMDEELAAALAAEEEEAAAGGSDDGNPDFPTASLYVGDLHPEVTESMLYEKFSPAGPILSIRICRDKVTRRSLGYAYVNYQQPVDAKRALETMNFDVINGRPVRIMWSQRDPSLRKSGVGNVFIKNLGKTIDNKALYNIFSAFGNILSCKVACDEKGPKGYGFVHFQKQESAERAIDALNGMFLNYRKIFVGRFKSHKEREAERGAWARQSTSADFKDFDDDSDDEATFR
CUGCUCC: -0.315
AAACGGC: 0.869
UUUGUGG: -0.394
CUCAUCU: -0.336
ACCUGGG: 0.106
AGAAAUU: 1.25
AAAUCGU: 0.615
AUGCUGA: 0.0823
GCAACAG: 0.0315
AUAGCCU: -0.0627
GUGGCAG: 0.164
UUUACUA: -0.0772
UUCCCGU: -0.505
UAUGUAC: -0.0355
AUACUGA: -0.117
CAGCCGU: -0.222
GGAUCCA: 0.0497
CCGUUAG: -0.461
UGGCUAG: -0.0699
UAUUAUA: -0.151
CAGUUUG: -0.44
CGCGCAU: -0.282
GUUAGUU: -0.3
AUGAUGU: -0.186
AGGAUGU: -0.0246

Block 2
Target: ABI1, truncated, D143A, DHFR fusion (Arabidopsis thaliana)
Method: DHFR PCA, deep sequencing
Sample: yeast
Setting: methotrexate growth selection, single substitutions
With: (+)-ABA 2500 µM
Baseline: wild-type fitted maximum
Direction: higher = stronger binding
Endpoint: relative binding score
Starting sequence: PYL1, truncated, DHFR fusion (Arabidopsis thaliana); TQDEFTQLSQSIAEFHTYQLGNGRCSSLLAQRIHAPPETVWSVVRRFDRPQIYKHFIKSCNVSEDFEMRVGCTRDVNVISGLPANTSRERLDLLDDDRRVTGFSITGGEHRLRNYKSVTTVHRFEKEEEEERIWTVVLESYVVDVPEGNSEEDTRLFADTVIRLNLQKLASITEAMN; partner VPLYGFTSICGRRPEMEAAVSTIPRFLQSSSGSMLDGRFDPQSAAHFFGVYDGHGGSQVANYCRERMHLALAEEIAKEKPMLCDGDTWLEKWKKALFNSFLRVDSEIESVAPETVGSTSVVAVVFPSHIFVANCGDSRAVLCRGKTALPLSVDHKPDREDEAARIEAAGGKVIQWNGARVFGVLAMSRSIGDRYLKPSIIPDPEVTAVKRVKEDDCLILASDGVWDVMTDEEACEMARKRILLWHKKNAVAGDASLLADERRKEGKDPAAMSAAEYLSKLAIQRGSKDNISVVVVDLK
E152I: 97%
R163M: 86.3%
H110R: 29.4%
N22M: 100%
I57Y: 77%
L164F: 97.7%
R88Y: 99.4%
A158G: 89.5%
T173E: 53.2%
R98F: 100%
D96H: 88.8%
L29V: 99.5%
Q167V: 94.8%
V136F: 109%
S27R: 93.7%
T106H: 98.5%
Q51D: 101%
D97M: 104%
D153A: 74%
Y141F: 92.2%

Block 3
Target: RNA binding protein fox-1 homolog 2, RRM domain, GST-SBP tag (RBFOX2, Homo sapiens, UniProt O43251-10, residues 100-194)
Method: RNA Bind-n-Seq
Form: RNA
Sample: in vitro
Concentration: 365 nM
Setting: natural RNA segment, single round, ends assumed
Baseline: no-protein control
Direction: higher = stronger binding
Endpoint: RBNS enrichment (R)
Shared flanks, not repeated: GGGAGUUCUACAGUCCGACGAUC … UGGAAUUCUCGGGUGCCAA
Residues (chain): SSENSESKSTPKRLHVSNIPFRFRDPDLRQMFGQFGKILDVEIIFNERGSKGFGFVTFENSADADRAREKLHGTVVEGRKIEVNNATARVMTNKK
AGAGUGCUGCAGAGUCUAUGUCUGCUGACCACCUGUGCUACCACUUAACAAUGAGCAUAGCUGGUCUCAGCCAGGGCACUCAGCACCUUCCCUUAAGGAGCAAGAAGCGC: 0.233
CCUCGGCCCUCCGGACCCGGCUGCGGCCCCCGCCUCCGAGACCAAAUAGAGACGCUGCUUCUCCCUCGCCUGGUGCCGCCCCCGCCGGGCAGGGGCCAUCCACCCGCCCC: 0.41
GCAUUUUUAUUAAUGUGUAGAUUUAUGGUCUGAUCUGAAGAUGUUUGAGUAAUAUAUUUUUAAGAACACCACUGGUCCUGUAAGUCUUGCCUCCUUGGCUUCUACUAGAG: 0.237
ACAUUUUUUUUUAAAUGGUCACAUUUCGUGCUUCUCGGAUUUCUGAGGAAAUAUUUUGUAUUGUAUAUUACAAUGAUCACUGGCUGAAAAUAUUGUUUUACAAUAGUUCU: 0.497
UUGAGGCUGGAACUUGCUCUCUCUGCCCCUAUUUCCUUGUAAAGAGGGAGCACAUUGACUUGGGAAUUUCCUCCAGGAAACUCAGGGCUGUUUUCUCUUCCCUUAGGUUG: 0.264
UCCUGGUGUUGAGUUUCUGCAAAUUUCUGGGGGUGAUUUCUGUGACUCUGGGCCCACAGCGGGGAGGCCAAGAGGGGCCCUGUGGACUUUCACCCAGCACUGUGGGGGCC: 1.31
CCCCUGCUCCUCUCCCAGAGGGCACUGCUUGGAAAUUGUGUUUUCCCCAUUUAUGGUGCUCUGUAUUCUGGCAUUAUGCAGCAGCCUCCCAGAAGCUCUCUUCUGCUUCA: 0.381
GAAAAGUAGCAUUCUAUAAAUACUAUUAAACAACUUAGCUAUAUUAUUUUUAAGUAUUAAAUUAUAUGUCAAGCAGUUAAAGUGAAUUUCAGAGUAAAAGUAAGGCAUGU: 2.06
AGACAUUCCAGAAUUGUCAUGAUGUUUACACUGUCUGAGUUAAAAAUCCUGUUCAAGAAAAAAAAAGAUUUUGUAUCACUUCUUAAAAAGGAAUAUUCAUAGCACUUGUC: 0.731
UUGUAUCUUUUCUCAGGUUAUGCCUUAUGUAACUGGAUAAUUUUAUUAUAAAAAUUUCUCUGAAACUCUCAUGUCUGUUUUGUGGUAUGGGCAGGAGUAGACAGAACUGG: 1.05
AACCGCAGAAGAAAUGCAUUCACACAGUCGCAGAGAUGCAGGCCUUGCCAGUGGUGUGCCGGGCGCGGGUCCUGUCUGGCGGCGGCCUGUCGUCUCCAGGUGCUAACUCC: 1.13
CUUUGGUUAUUCAUACGGAAUUGAUGAUGGAAAAGCAACUGGUUGUCUUCUAAUUGUCUUUGUCUAGAUGGAAACUGAACCUUAGCAGAUGAAUAAACCCUGAAAAGGUC: 0.279

Block 4
Target: CCND1, cyclin fold, Cln2 fusion (human)
Method: yeast growth competition, sequencing
Sample: yeast
Setting: weak parent motif
Baseline: not given
Direction: higher = stronger binding
Endpoint: normalised enrichment score
Starting sequence: ORC1 docking peptide (human); PRARKRLELGNLG
A3E: 0.306
L7Y: -0.275
P1E: 0.368
P1H: -0.171
G10I: 0.0623
R6E: 0.0823
K5Q: -0.248
R4N: 0.0543
G13T: -0.263
A3M: 1.29
R6N: -0.0308
R2G: -0.23
E8D: 0.626
K5G: -0.0923
G13R: -0.231
K5L: -0.222
L7G: -0.365
G13W: -0.237

Block 5
Target: UBE2J1 UBC core domain (UniProt Q9Y385)
Chain of UniProt Q9Y385 (whole entry, looked up): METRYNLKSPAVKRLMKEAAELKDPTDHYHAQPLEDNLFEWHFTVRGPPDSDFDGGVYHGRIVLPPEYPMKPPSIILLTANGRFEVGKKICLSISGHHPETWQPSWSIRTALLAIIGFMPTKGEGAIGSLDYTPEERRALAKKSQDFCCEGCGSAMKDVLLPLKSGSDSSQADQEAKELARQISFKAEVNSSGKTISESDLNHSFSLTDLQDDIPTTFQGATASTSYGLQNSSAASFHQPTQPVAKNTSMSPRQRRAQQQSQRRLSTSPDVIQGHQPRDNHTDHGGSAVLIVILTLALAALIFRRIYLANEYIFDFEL
Method: yeast two-hybrid
Sample: yeast
Setting: mostly zero background
Baseline: not given
Direction: higher = stronger interaction
Endpoint: lacZ reporter activity
B1: MAP3K1 RING domain (UniProt Q13233); chain NSIKDEEEQMCPICLLGMLDEESLTVCEDGCRNKLHHHCMSIWAEECRRNREPLICPLCRSKWRSHDFYS
B2: DTX2 RING domain (UniProt Q86UW9); chain EELKVPPDEDCIICMEKLSTASGYSDVTDSKAIGSLAVGHLTKCSHAFHLLCLLAMYCNGNKDGSLQCPSCKTIYGEKTGTQ
B3: RNF19A RING domain (UniProt Q9NV58); chain ISKQIGDFIECPLCLLRHSKDRFPDIMTCHHRSCVDCLRQYLRIEISESRVNISCPECTERFNPHDIR
B4: SH3RF1 RING domain (UniProt Q7Z6J0); chain DESALLDLLECPVCLERLDASAKVLPCQHTFCKRCLLGIVGSRNELRCPECRTLVGSGVEEL
B5: TRIM62 RING domain (UniProt Q9BVG3); chain MACSLKDELLCSICLSIYQDPVSLGCEHYFCRRCITEHWVRQEAQGARDCPECRRTFAEPALAP
B6: DZIP3 RING domain (UniProt Q86Y13); chain PDEEEEEEEPCVICHENLSPENLSVLPCAHKFHAQCIRPWLMQQGTCPTCRLHVLLPEEFP
B7: MDM4 RING domain (UniProt O15151); chain MEDCQNLLKPCSLCEKRPRDGNIIHGRTGHLVTCFHCARRLKKAGASCPICKKEIQLVIKVF
B8: RBCK1 RING domain (UniProt Q9BYM8); chain SLVLNTEPAECPVCYSVLAPGEAVVLRECLHTFCRECLQGTIRNSQEAEVSCPFIDNTYSCSGKLLEREIK
B9: RNF121 RING domain (UniProt Q9H920); chain MPTKHLSDSVCAVCGQQIFVDVSEEGIIENTYRLSCNHVFHEFCIRGWCIVGKKQTCPYCKEKVDLKRMFS
NLSELTPYILCSICKGYLIDATTITECLHTFCKSCIVRHFYYSNRCPKCNIVVHQTQPLY (PCGF6 RING domain (UniProt Q9BYE7)): 0
B1 (MAP3K1 RING domain): 0
GSDDEEIPFKCFICRQSFQNPVVTKCRHYFCESCALQHFRTTPRCYVCDQQTNGVFNPA (RNF113A RING domain (UniProt O15541)): 0
B2 (DTX2 RING domain): 0
PEDRESLKSACVVCLSSFKSCVFLECGHVCSCTECYRALPEPKKCPICRQAITRVIPLY (MUL1 RING domain (UniProt Q969V5)): 0
B3 (RNF19A RING domain): 0
B4 (SH3RF1 RING domain): 0
B5 (TRIM62 RING domain): 0
AVPSGLEENLCKICMDSPIDCVLLECGHMVTCTKCGKRMNECPICRQYVIRAVHVF (RFFL RING domain (UniProt Q8WZ73)): 0
B6 (DZIP3 RING domain): 0
B7 (MDM4 RING domain): 0
GSRLQEINDVCAICYHEFTTSARITPCNHYFHALCLRKWLYIQDTCPMCHQKVYIEDDIK (RNF139 RING domain (UniProt Q8WU17)): 0
B8 (RBCK1 RING domain): 0
B9 (RNF121 RING domain): 0

A few entries again (block 5):
B2 (DTX2 RING domain): 0
PEDRESLKSACVVCLSSFKSCVFLECGHVCSCTECYRALPEPKKCPICRQAITRVIPLY (MUL1 RING domain (UniProt Q969V5)): 0
B3 (RNF19A RING domain): 0
B4 (SH3RF1 RING domain): 0
B5 (TRIM62 RING domain): 0
AVPSGLEENLCKICMDSPIDCVLLECGHMVTCTKCGKRMNECPICRQYVIRAVHVF (RFFL RING domain (UniProt Q8WZ73)): 0
B6 (DZIP3 RING domain): 0
B7 (MDM4 RING domain): 0
GSRLQEINDVCAICYHEFTTSARITPCNHYFHALCLRKWLYIQDTCPMCHQKVYIEDDIK (RNF139 RING domain (UniProt Q8WU17)): 0
B8 (RBCK1 RING domain): 0
